{"data": "Experimental data gathered from unrelated publications", "note": "Every numbered part comes from another study and shows a few of its results, in no order."}
{"data": "Series 1", "cell line": "HEK-293T", "effect on": "pseudovirus infection", "method": "FDA-approved drug library screen", "organism": "VSV pseudotyped with SARS-CoV-2 spike", "tested at": "10 µM", "time": "16 h", "baseline": "vehicle-treated"}
{"SMILES": "NNC(=O)c1ccncc1", "GFP-positive cells [%]": 95.3}
{"SMILES": "COCCCC/C(=N\\OCCN)c1ccc(C(F)(F)F)cc1", "GFP-positive cells [%]": 55.9}
{"SMILES": "CC1(C)O[C@@H]2C[C@H]3[C@@H]4C[C@H](F)C5=CC(=O)C=C[C@]5(C)[C@@]4(F)[C@@H](O)C[C@]3(C)[C@]2(C(=O)CO)O1", "GFP-positive cells [%]": 99.5}
{"data": "Series 2", "target": "Sal-like protein 4, full length isoform A (SALL4, Homo sapiens, UniProt Q9UJQ4, residues 1-1053)", "method": "universal PBM", "form": "double-stranded DNA, one strand shown", "medium": "in vitro", "tested at": "600 nM", "setting": "8-mer, flanks averaged, mean of replicates", "direction": "higher = stronger binding", "UniProt Q9UJQ4, sequence (whole entry, looked up)": "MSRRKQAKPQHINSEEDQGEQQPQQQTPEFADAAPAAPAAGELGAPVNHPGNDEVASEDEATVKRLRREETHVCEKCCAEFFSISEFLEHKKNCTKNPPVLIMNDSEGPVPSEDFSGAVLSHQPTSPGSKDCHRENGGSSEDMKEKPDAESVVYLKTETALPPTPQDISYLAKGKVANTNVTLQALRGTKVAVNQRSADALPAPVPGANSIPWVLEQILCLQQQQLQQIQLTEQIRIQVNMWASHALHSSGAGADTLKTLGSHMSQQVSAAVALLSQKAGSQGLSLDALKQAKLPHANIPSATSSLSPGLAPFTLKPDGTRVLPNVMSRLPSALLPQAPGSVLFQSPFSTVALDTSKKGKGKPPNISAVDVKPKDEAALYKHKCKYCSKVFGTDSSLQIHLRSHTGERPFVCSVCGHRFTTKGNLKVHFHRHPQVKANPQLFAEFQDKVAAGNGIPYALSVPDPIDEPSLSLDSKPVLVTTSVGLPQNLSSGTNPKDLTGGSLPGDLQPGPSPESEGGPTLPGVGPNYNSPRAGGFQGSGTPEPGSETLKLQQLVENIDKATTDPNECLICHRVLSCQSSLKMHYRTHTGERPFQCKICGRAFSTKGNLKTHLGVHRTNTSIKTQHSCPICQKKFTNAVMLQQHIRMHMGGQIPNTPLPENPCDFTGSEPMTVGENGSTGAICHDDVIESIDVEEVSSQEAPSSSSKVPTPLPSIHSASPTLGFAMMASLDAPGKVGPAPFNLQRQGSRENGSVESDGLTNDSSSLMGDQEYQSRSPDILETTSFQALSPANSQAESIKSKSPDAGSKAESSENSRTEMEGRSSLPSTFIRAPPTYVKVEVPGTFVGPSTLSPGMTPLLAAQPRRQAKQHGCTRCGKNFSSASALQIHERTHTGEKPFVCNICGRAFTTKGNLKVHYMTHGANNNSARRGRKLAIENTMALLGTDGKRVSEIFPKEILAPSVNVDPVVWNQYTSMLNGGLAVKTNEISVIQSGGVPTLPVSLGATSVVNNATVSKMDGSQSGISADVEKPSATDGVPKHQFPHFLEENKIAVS"}
{"Strand": "CGGACGTC", "E-score": -0.248}
{"Strand": "CAACCAGA", "E-score": 0.0324}
{"Strand": "GATGACCA", "E-score": 0.0355}
{"Strand": "CCAATAGC", "E-score": -0.0467}
{"Strand": "GGCCAGAC", "E-score": -0.252}
{"Strand": "ACGGATCA", "E-score": -0.0543}
{"Strand": "GAAATTCA", "E-score": 0.183}
{"Strand": "ATGGTCTC", "E-score": -0.0143}
{"data": "Series 3", "target": "Interferon regulatory factor 3, full length, phosphomimetic (IRF3, Homo sapiens, UniProt Q14653, residues 1-427, S386D/S396D/S398D/S402D/T404D/S405D)", "method": "protein-binding microarray", "form": "double-stranded DNA, one strand shown", "medium": "in vitro", "tested at": "2540 nM top", "setting": "60-bp whole probe", "added": "salmon DNA 0.4 mg/ml", "baseline": "random background probes", "direction": "higher = stronger binding", "all sequences stand within": "GCCTAGCAC … GTCTTGATTCGCTTGACGCTGCTG", "Residues (chain)": "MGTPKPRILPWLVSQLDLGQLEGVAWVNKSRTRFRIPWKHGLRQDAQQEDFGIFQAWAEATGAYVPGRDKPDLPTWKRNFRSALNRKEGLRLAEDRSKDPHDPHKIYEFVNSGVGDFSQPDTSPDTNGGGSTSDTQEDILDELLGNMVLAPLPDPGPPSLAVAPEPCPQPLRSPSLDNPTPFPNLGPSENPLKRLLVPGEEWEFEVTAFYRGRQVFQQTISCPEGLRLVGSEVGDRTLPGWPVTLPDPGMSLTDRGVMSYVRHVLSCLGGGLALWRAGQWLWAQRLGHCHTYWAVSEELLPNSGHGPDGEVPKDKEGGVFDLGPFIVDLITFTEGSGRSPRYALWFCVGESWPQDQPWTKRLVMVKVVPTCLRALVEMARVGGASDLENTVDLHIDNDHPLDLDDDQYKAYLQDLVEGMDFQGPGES"}
{"Strand": "GACGGACTGTGGACTGGGGACGTGCTA", "fitted relative affinity": "-0.861 z-score"}
{"Strand": "GACGATATCGGTCTCGGGACGTGCTAG", "fitted relative affinity": "1.39 z-score"}
{"Strand": "GACCGTATCGACACTGGGGACGTGCTA", "fitted relative affinity": "1.31 z-score"}
{"Strand": "TTAGATATCGGGACTGGTTTAGTGCTA", "fitted relative affinity": "-0.0568 z-score"}
{"Strand": "TCACATTTTTCCCTCTGACTGTGCTAG", "fitted relative affinity": "1.66 z-score"}
{"data": "Series 4", "target": "Replicase polyprotein 1ab, polymerase (rep, Severe acute respiratory syndrome coronavirus 2, UniProt P0DTD1)", "effect on": "enzyme activity", "mode": "inhibitor", "tested at": "20 µM"}
{"Structure (SMILES)": "C=C[C@]1(C)C[C@@H](OC(=O)CS[C@@H]2C[C@H]3CC[C@@H](C2)N3C)[C@]2(C)[C@H](C)CC[C@]3(CCC(=O)[C@H]32)[C@@H](C)[C@@H]1O", "inhibition [%]": -1.45}
{"Structure (SMILES)": "C=CC(=O)Nc1cccc(C)c1Nc1ncc2cc(-c3c(Cl)c(OC)cc(OC)c3Cl)ccc2n1", "inhibition [%]": 4.06}
{"Structure (SMILES)": "CCCNC(C)(C)COC(=O)c1ccccc1", "inhibition [%]": -1.88}
{"Structure (SMILES)": "O=C(CN1CCN(Cc2ccc3c(c2)OCO3)CC1)N1c2ccccc2Sc2ccccc21", "inhibition [%]": 0.82}
{"Structure (SMILES)": "C[C@H](CCC(=O)O)[C@H]1CC[C@H]2[C@@H]3CC[C@@H]4C[C@H](O)CC[C@]4(C)[C@H]3C[C@H](O)[C@]12C", "inhibition [%]": -2.53}
{"Structure (SMILES)": "O=C(O)[C@@H](O)[C@@H](O)[C@H](O)[C@@H](O)C(=O)O", "inhibition [%]": -2.37}
{"Structure (SMILES)": "C=CC(=O)Nc1ccc2ncnc(Nc3cccc(Br)c3)c2c1", "inhibition [%]": 2.18}
{"Structure (SMILES)": "CCCCN1C[C@H](O)[C@@H](O)[C@H](O)[C@H]1CO", "inhibition [%]": 3.3}
{"Structure (SMILES)": "COc1ccc(C(CN(C)C)C2(O)CCCCC2)cc1 (centres unmarked)", "inhibition [%]": -5.04}
{"Structure (SMILES)": "CC(C)(C=O)Cc1cc(C(C)(C)C)c(O)c(C(C)(C)C)c1", "inhibition [%]": -1.15}
{"Structure (SMILES)": "CN(C)CCCSC(=N)N", "inhibition [%]": -3.31}
{"Structure (SMILES)": "CCCC(=O)O[C@]1(C(=O)COC(C)=O)CC[C@H]2[C@@H]3C[C@H](F)C4=CC(=O)C=C[C@]4(C)[C@@]3(F)[C@@H](O)C[C@@]21C", "inhibition [%]": -4.91}
{"Structure (SMILES)": "CC(=O)C1=C(O)[C@@H]2[C@H]3c4c[nH]c5cccc(c45)C[C@H]3C(C)(C)N2C1=O", "inhibition [%]": -2.13}
{"Structure (SMILES)": "COc1cc(C)[nH]c(=O)c1CNC(=O)c1c(C)n([C@H](C)C2CCOCC2)c2ccccc12", "inhibition [%]": -1.72}
{"Structure (SMILES)": "NC(=O)N/N=C/c1ccc([N+](=O)[O-])o1", "inhibition [%]": 21}
{"Structure (SMILES)": "O=C(NCCCCN1CCN(c2cccc(Cl)c2Cl)CC1)c1ccc2c(c1)Cc1ccccc1-2", "inhibition [%]": 5.65}
{"note": "A few entries again (series 4):"}
{"Structure (SMILES)": "CC(=O)C1=C(O)[C@@H]2[C@H]3c4c[nH]c5cccc(c45)C[C@H]3C(C)(C)N2C1=O", "inhibition [%]": -2.13}
{"Structure (SMILES)": "C[C@H](CCC(=O)O)[C@H]1CC[C@H]2[C@@H]3CC[C@@H]4C[C@H](O)CC[C@]4(C)[C@H]3C[C@H](O)[C@]12C", "inhibition [%]": -2.53}
{"Structure (SMILES)": "C=CC(=O)Nc1cccc(C)c1Nc1ncc2cc(-c3c(Cl)c(OC)cc(OC)c3Cl)ccc2n1", "inhibition [%]": 4.06}
{"Structure (SMILES)": "O=C(CN1CCN(Cc2ccc3c(c2)OCO3)CC1)N1c2ccccc2Sc2ccccc21", "inhibition [%]": 0.82}
{"Structure (SMILES)": "C=C[C@]1(C)C[C@@H](OC(=O)CS[C@@H]2C[C@H]3CC[C@@H](C2)N3C)[C@]2(C)[C@H](C)CC[C@]3(CCC(=O)[C@H]32)[C@@H](C)[C@@H]1O", "inhibition [%]": -1.45}
